Measured values pooled from the literature.
Every numbered part comes from another study and shows a few of its results, in no order. Positions count from the first letter of the parent shown.

Set 1
Target: MAFG, bZIP domain (human)
Method: DHFR protein complementation
Matrix: yeast
Notes: single substitutions, most at no-binding floor
Relative to: wild-type JUN-FOS pair
Direction: higher = stronger binding
Measurement: binding fitness
Parent: JUN, bZIP domain (human); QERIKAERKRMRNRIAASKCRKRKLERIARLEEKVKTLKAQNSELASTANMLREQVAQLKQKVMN; partner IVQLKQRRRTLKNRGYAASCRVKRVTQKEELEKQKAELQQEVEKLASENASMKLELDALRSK
V56K: -1.4 natural log
S47V: -1.34 natural log
Q55Y: -1.48 natural log
R30V: -1.28 natural log
K39Y: -1.57 natural log
L59G: -1.41 natural log
E54S: -1.27 natural log
E44N: -1.63 natural log
R30Y: -1.6 natural log
L45H: -1.48 natural log
M51E: -1.12 natural log
L52T: -1.52 natural log
L31V: -1.51 natural log
E44H: -1.56 natural log
E32F: -1.42 natural log
L38C: -1.26 natural log
E44V: -1.45 natural log
T37W: -1.2 natural log
V56L: -1.43 natural log
A49P: -1.42 natural log
K34P: -1.52 natural log
L38A: -1.37 natural log
K39S: -1.37 natural log
L59P: -1.39 natural log
R30L: -1.47 natural log

Set 2
Target: Interferon regulatory factor 7, full length, phosphomimetic (IRF7, Homo sapiens, UniProt Q92985, residues 1-503, S101K/S471D/S472D/S475D/S476D/S477D/S483D/S484D/S487D)
Method: protein-binding microarray
Molecule type: double-stranded DNA, one strand shown
Matrix: in vitro
Concentration: 250 nM
Notes: 60-bp whole probe
With: salmon DNA 0.4 mg/ml
Relative to: random background probes
Direction: higher = stronger binding
Measurement: log fluorescence
Constant ends, left off below: GCCTAGCAC … GTCTTGATTCGCTTGACGCTGCTG
Residues (chain): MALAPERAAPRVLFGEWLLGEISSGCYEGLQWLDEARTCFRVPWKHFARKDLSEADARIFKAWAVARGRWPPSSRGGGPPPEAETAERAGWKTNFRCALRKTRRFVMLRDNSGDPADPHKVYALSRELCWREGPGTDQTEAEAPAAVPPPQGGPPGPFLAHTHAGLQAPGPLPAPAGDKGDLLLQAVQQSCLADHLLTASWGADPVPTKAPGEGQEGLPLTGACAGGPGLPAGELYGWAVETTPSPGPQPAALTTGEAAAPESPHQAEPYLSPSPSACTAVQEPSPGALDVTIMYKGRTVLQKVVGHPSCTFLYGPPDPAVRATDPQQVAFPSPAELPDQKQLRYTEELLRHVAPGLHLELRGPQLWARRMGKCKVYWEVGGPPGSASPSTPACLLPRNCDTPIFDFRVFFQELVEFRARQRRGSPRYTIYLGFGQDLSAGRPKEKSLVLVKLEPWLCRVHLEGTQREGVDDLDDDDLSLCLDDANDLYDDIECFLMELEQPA
TAAGGTCTCGGTTTCGGTTAGTGCTAG: 11.6 z-score
GACGAATTCAGACTGGAGACGTGCTAG: -0.178 z-score
TTAGGTATCCTTATCCTCTAGTGCTAG: 0.457 z-score
GACGGTTCCCTTTTGCTGACGTGCTAG: 3.55 z-score
TTAGGTCTCGTTATCGGTTAGTGCTAG: 3.22 z-score
GACGGTTCCCTGTTCCTGACGTGCTAG: 1.4 z-score
TTAGGTTTCGGGTTGCGGTTAGTGCTA: 12.9 z-score
AGGTTCTACTCCGTTAGTTGGTGCTAG: 0.599 z-score
TTAGAATTCGGGTTTCGATTAGTGCTA: 7.46 z-score
TTAGATTTCGGGTTTCGACTAGTGCTA: 4.29 z-score
TTTGGTTTCGACTTTCGGTTAGTGCTA: 12.6 z-score
TTAGAACTGAGGTTCGATTAGTGCTAG: 0.827 z-score
GACGGTCTCAGACTGGGGACGTGCTAG: -0.259 z-score
TTTTTTTTTTTTTTTTACTTGTGCTAG: 0.463 z-score
TCATTTCTCCTTTGTAAACTGTGCTAG: 2.94 z-score
CCTCGTCTCTATCAAAAATAGTGCTAG: 0.659 z-score
TCAGCCATCAATATCTGACTGTGCTAG: -0.596 z-score
GACGGCTTCGGTTCCGGGACGTGCTAG: 0.659 z-score
TCATCCCTAATTCTGATACTGTGCTAG: 1.19 z-score

Set 3
Target: Fragile X messenger ribonucleoprotein 1, C-terminal low-complexity region (Fmr1, Mus musculus, UniProt P35922)
Method: RNA Bind-n-Seq
Molecule type: RNA
Matrix: in vitro
Concentration: 200 nM
Notes: whole 134-nt RNA, ends assumed
With: 150 mM KCl
Relative to: input library
Direction: higher = stronger binding
Measurement: log2 enrichment
Constant ends, left off below: GGGAGUUCUACAGUCCGACGAUC … UGGAAUUCUCGGGUGUCAAGG
UCCUGUGCUACACAUCGUAUGUACCGAAUCGGGGAAAAAAGGAAAAAAGGAAAAAAGGGGAAAGUAUUAUGUUACGCCGUUCGGAUCUGC: -0.33
UGGGAGGUGGAUUAUGUUUAUUUUUUUAGCUCAUUUCCAGGGGUGGGAAUUUUUUUUUAAUAUGUGUCAUGAAUAAAGUUGUUUUUGAAA: 0.0851
AGUCCUGUGCUACACAUCGUAUGUACCGAAUCGGCCCCCGGGGCCCCCGGCCCCCGGGAAAGUAUUAUGUUACGCCGUUCGGAUCUGCAC: -0.637
AAGUCCUGUGCUACACAUCGUAUGUACCGAAUCGGGAGGGUUUUUUUGGGAAAGGGAAAGUAUUAUGUUACGCCGUUCGGAUCUGCACUU: 0.438
UAACUUUAGAGGAGGAUCUGAUGGAUAUGGCAGUGGACGUGGAUUUGCGGAUGGCUAUAAUGGGUAUGGAGGAGGACCUGGAGGUGGCAA: 0.335
GUCCUGUGCUACACAUCGUAUGUACCGAAUCGGGGUGGGGUUUGGGGUUUUUUUGGGGAAAGUAUUAUGUUACGCCGUUCGGAUCUGCAC: 0.79
GUCCUGUGCUACACAUCGUAUGUACCGAAUCGGUUUUUUGGGGUUUUUUGGUUUUUUGGAAAGUAUUAUGUUACGCCGUUCGGAUCUGCA: -0.517
UGGCCCUGGUGGCAUGCGGGGAGGAAGAGGUGGCCUCAUGGAUCGUGGUGGUCCCGGUGGAAUGUUCAGAGGGGGCCGUGGUGGAGACAG: -0.23
UGCAGCUCUCCGGCUGGGAUCCUGGUUGACGCCAUGUCCCAGAAGCACCUUCAGAUCAACCAGACAUUUGAGGAGCUGCGACUGGUCACG: -1.82

Set 4
Target: Eukaryotic initiation factor 4A-I (EIF4A1, Homo sapiens, UniProt P60842, residues 1-406, full length assumed)
Chain of UniProt P60842 (whole entry, looked up): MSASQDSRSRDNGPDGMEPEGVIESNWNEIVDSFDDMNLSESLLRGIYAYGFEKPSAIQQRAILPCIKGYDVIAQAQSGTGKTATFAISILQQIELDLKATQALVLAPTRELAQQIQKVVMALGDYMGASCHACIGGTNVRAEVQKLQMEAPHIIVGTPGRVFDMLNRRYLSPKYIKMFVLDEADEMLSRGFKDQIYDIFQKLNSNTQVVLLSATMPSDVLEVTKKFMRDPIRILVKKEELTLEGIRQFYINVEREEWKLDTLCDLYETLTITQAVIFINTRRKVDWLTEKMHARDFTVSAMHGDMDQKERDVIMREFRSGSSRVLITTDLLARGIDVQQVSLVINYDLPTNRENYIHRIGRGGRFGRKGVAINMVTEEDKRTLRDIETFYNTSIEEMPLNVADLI
Method: RNA Bind-n-Seq
Molecule type: RNA
Matrix: in vitro
Concentration: 15 pmol
Notes: 4-mer, random 30-nt RNA, single round
With: 3 µM RocA, 2 mM AMP-PNP
Relative to: mean of 4-mers
Direction: higher = stronger binding
Measurement: 4-mer enrichment Z-score
GGCA: 0.0412
CGUG: 0.538
AAAC: -0.00965
CGCU: -0.507
AGGC: 0.205
GGCC: -0.556
UACC: -1.1
AAUA: 0.832
UGAA: 1.81
AGGA: 1.53
CUCC: -1.3
AACC: -0.801
ACAA: -0.411
CUGC: -0.641
GUCU: -0.553
AUAC: -0.817

Set 5
Target: Histone acetyltransferase KAT6A, winged helix 2, GST fusion (KAT6A, Homo sapiens, UniProt Q92794, residues 85-181)
Method: protein binding microarray
Molecule type: double-stranded DNA, one strand shown
Matrix: in vitro
Concentration: not given
Notes: 8-mer, flanks averaged, mean of 2 arrays, mostly near background
Relative to: not given
Direction: higher = stronger binding
Measurement: E-score
Construct (chain): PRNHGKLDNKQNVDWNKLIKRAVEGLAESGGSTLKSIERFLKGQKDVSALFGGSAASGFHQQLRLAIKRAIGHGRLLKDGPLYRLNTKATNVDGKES
CAACATGG: 0.0848
ACGACAGG: 0.158
ATGGAAGG: 0.0524
GGACGACC: -0.00591
CGGACCTC: 0.155
CCCAAGCC: 0.0392
AATAGTAT: 0.0944
ACGGTCTG: 0.0242
GGATTAAA: 0.107
GTGAGGAA: 0.0375
CAAGTAAG: -0.0542
ATAAGACC: -0.204
TACGTAAA: -0.254
TAAAGCCA: -0.0841
AAGGCTAC: 0.00752
GCAAGGCA: 0.186
TACGCTAA: -0.0798
GCCCACAA: 0.195
GATCCATC: -0.0774
AGCTACCA: -0.0764
CTGTATGA: -0.0261

For quick reference, copied from above (set 1):
T37W: -1.2 natural log
V56L: -1.43 natural log
A49P: -1.42 natural log
K34P: -1.52 natural log
L38A: -1.37 natural log
K39S: -1.37 natural log
L59P: -1.39 natural log
